Measurements gathered from unrelated publications.
Each numbered part is a random draw from the data of one study; scales do not carry over between parts. “And” joins repeats or separate records; there may be more than shown.
Chain of UniProt Q8TDX7 (whole entry, looked up): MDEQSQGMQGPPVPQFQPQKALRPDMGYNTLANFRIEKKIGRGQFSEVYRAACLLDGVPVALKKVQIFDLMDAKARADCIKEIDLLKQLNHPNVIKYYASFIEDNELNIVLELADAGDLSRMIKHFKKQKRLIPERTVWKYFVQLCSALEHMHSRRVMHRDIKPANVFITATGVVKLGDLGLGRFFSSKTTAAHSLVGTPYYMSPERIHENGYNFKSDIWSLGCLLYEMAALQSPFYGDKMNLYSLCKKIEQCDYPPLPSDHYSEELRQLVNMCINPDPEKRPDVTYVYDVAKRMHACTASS
Chain of UniProt O94804 (whole entry, looked up): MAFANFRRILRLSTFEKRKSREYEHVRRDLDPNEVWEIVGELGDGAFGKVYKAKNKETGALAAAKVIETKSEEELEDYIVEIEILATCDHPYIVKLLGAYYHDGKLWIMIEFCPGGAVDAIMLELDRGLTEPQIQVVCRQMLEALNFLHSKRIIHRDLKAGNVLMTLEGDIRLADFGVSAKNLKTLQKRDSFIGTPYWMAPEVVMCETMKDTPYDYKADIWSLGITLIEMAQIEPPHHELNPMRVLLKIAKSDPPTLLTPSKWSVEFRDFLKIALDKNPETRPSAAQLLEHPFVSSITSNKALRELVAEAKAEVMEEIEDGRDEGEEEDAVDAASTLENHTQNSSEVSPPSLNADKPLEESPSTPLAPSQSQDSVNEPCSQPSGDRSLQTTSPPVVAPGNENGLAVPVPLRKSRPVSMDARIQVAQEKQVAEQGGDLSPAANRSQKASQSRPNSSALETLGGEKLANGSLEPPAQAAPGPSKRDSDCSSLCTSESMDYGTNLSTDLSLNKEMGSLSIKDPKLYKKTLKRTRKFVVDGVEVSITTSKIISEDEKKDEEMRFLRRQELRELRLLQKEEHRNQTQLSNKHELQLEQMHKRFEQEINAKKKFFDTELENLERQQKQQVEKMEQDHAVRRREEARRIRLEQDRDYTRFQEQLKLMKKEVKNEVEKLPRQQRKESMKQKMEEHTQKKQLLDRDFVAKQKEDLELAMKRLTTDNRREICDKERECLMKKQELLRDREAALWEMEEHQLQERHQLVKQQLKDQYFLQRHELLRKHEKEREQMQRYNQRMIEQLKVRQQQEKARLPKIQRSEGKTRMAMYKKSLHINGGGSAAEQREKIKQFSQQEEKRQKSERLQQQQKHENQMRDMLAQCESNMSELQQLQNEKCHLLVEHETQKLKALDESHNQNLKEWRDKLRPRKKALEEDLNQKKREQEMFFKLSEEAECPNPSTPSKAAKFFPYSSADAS
Chain of UniProt P27361 (whole entry, looked up): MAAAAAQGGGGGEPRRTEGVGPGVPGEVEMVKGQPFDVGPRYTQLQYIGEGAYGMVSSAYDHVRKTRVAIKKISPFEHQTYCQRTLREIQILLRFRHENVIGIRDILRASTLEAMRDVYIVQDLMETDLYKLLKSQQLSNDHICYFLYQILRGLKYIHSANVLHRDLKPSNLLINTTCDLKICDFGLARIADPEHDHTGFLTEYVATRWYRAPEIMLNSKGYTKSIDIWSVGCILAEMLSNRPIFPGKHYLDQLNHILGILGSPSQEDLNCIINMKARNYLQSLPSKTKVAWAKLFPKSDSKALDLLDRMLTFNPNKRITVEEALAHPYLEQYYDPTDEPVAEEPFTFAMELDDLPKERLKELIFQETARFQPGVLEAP
Chain of UniProt Q99558 (whole entry, looked up): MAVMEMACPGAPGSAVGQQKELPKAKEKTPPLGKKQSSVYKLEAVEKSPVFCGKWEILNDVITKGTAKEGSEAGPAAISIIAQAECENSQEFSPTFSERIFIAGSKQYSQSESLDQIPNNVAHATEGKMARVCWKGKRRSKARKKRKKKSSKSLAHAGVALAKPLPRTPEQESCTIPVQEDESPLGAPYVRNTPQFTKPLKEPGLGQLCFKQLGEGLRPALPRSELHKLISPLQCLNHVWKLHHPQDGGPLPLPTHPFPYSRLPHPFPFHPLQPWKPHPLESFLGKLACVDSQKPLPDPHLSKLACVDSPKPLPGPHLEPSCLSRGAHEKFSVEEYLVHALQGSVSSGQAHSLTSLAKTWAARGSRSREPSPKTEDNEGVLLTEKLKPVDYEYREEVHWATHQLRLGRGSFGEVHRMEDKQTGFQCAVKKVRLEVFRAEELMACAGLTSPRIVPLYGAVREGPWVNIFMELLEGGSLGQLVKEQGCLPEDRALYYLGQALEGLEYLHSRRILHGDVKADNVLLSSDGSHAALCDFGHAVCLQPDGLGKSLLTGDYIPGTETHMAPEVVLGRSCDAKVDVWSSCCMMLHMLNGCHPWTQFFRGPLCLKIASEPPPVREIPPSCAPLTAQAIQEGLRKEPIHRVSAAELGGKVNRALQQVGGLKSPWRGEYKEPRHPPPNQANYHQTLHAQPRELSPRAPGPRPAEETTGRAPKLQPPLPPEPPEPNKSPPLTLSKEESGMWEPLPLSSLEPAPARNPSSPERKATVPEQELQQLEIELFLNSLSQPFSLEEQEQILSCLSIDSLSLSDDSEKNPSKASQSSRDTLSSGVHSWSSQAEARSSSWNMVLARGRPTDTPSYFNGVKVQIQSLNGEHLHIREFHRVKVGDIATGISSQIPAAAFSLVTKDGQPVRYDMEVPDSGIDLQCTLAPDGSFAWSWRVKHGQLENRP
Chain of UniProt P52564 (whole entry, looked up): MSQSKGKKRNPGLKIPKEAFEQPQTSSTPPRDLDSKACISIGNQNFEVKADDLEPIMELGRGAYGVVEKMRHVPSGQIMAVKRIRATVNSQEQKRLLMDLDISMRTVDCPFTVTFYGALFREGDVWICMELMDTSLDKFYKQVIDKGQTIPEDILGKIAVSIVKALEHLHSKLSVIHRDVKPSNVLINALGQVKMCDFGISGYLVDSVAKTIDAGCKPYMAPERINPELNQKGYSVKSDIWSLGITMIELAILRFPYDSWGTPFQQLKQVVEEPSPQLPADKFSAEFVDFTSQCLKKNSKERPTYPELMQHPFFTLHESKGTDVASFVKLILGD
Chain of UniProt P42685 (whole entry, looked up): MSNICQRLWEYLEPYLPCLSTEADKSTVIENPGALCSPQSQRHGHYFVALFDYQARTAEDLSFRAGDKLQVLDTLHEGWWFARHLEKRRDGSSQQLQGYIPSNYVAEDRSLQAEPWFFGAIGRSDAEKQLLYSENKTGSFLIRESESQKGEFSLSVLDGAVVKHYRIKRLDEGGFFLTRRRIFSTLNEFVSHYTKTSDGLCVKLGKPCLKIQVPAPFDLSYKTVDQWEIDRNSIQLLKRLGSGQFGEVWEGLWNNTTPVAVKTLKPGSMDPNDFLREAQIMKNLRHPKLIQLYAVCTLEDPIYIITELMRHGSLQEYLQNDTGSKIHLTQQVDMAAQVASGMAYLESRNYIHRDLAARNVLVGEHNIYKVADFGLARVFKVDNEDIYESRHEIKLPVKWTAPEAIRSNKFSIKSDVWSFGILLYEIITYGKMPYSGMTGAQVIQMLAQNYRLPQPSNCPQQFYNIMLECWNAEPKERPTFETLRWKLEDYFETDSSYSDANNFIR

Study 1 — observed: thermal unfolding; method: differential scanning fluorimetry; tested at: 5.5 µM; reading: higher = more unfolded; endpoint: SYPRO Orange fluorescence
SMILES: C[C@@H]1CN(c2ccc(-c3cc(C(=O)NCCOCCOCCOCCOCCNC(=O)Cn4cc(-c5[nH]cc(C(=O)N[C@@H](CC(N)=O)c6ccc(F)c(Cl)c6)c5-c5ccc(Cl)cc5F)cn4)ccc3F)cc2NC(=O)c2c[nH]c(=O)cc2C(F)(F)F)C[C@H](C)N1C
WDR5: WD repeat-containing protein 5 (WDR5, Homo sapiens, UniProt P61964)
DCAF1: DDB1- and CUL4-associated factor 1 (DCAF1, Homo sapiens, UniProt Q9Y4B6)
Chain of UniProt Q9Y4B6 (whole entry, looked up): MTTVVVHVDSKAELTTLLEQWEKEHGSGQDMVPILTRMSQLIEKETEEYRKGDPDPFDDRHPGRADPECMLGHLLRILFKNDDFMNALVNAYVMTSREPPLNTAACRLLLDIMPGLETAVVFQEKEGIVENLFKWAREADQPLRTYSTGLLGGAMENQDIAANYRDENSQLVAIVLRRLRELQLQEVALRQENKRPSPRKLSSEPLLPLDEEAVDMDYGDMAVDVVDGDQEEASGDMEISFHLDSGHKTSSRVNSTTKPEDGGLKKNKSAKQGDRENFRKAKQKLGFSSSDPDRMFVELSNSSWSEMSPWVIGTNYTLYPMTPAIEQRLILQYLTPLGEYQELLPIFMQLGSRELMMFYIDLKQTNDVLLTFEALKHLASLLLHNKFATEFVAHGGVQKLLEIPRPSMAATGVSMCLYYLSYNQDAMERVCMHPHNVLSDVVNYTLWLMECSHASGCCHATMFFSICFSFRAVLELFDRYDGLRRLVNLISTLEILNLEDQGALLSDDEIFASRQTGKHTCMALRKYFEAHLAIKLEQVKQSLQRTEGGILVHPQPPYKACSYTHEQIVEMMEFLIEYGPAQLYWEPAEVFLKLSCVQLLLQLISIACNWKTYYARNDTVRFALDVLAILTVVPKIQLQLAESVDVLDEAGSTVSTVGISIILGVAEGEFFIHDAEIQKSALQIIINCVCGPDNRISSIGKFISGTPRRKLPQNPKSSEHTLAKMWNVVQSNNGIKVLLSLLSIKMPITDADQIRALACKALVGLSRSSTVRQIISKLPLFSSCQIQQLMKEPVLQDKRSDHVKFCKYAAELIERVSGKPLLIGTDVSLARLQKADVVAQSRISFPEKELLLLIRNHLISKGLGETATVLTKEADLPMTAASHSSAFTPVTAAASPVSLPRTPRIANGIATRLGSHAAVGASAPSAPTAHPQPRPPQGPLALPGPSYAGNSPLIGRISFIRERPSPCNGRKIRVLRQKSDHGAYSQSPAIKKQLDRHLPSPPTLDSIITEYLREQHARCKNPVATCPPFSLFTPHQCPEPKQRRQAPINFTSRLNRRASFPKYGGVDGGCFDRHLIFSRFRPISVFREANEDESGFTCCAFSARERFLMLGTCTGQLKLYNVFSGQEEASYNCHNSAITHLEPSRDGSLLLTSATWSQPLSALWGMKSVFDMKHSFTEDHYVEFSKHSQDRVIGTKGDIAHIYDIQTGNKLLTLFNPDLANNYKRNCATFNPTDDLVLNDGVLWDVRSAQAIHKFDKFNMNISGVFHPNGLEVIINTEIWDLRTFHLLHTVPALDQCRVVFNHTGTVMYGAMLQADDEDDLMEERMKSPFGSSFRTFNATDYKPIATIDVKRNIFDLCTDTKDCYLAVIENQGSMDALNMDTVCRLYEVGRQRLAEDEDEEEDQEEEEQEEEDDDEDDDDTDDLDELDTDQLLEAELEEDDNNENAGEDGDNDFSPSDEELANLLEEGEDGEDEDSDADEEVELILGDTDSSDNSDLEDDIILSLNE
WDR5; 32.8 °C: 14300 a.u.
WDR5; 88.21 °C: 43600 a.u.
DCAF1; 26.2 °C: 7610 a.u.
WDR5; 58.41 °C: 11500 a.u.
WDR5; 27.8 °C: 14900 a.u.
DCAF1; 92.61 °C: 32500 a.u.
DCAF1; 87.21 °C: 37700 a.u.
DCAF1; 39.2 °C: 9990 a.u.
WDR5; 69.81 °C: 6780 a.u.
DCAF1; 40.2 °C: 10400 a.u.
DCAF1; 76.61 °C: 47600 a.u.

Study 2 — tested at: 1 µM; endpoint: remaining binding
SMILES: CC[C@@]1(c2ccccc2)C2=C(CC(C)(C)CC2=O)Nc2n[nH]cc21
Serine/threonine-protein kinase TAO1 (TAOK1, Homo sapiens, UniProt Q7L7X3); binding, competition with immobilised ligand: 100%
Phosphatidylinositol 4,5-bisphosphate 3-kinase catalytic subunit alpha isoform (PIK3CA, Homo sapiens, UniProt P42336, Q546K); binding, competition with immobilised ligand: 86%
Rho-associated protein kinase 2 (ROCK2, Homo sapiens, UniProt O75116); binding, competition with immobilised ligand: 77%
Serine/threonine-protein kinase 36 (STK36, Homo sapiens, UniProt Q9NRP7); binding, competition with immobilised ligand: 100%
Mitogen-activated protein kinase kinase kinase kinase 5 (MAP4K5, Homo sapiens, UniProt Q9Y4K4); binding, competition with immobilised ligand: 100%
RAF proto-oncogene serine/threonine-protein kinase (RAF1, Homo sapiens, UniProt P04049); kinase binding, KINOMEscan; baseline: DMSO control: 100%
Serine/threonine-protein kinase 10 (STK10, Homo sapiens, UniProt O94804); kinase binding, KINOMEscan; baseline: DMSO control: 100%
Serine/threonine-protein kinase TAO2 (TAOK2, Homo sapiens, UniProt Q9UL54); binding, competition with immobilised ligand: 92%
Serine/threonine-protein kinase N2 (PKN2, Homo sapiens, UniProt Q16513); binding, competition with immobilised ligand: 100%
Mitogen-activated protein kinase kinase kinase 3 (MAP3K3, Homo sapiens, UniProt Q99759); kinase binding, KINOMEscan; baseline: DMSO control: 95%
Serine/threonine-protein kinase haspin (HASPIN, Homo sapiens, UniProt Q8TF76); kinase binding, KINOMEscan; baseline: DMSO control: 68%
Mitogen-activated protein kinase kinase kinase 2 (MAP3K2, Homo sapiens, UniProt Q9Y2U5); kinase binding, KINOMEscan; baseline: DMSO control: 100%
Ephrin type-B receptor 3 (EPHB3, Homo sapiens, UniProt P54753); kinase binding, KINOMEscan; baseline: DMSO control: 100%
Ribosomal protein S6 kinase alpha-5, C-terminal kinase domain (RPS6KA5, Homo sapiens, UniProt O75582); binding, competition with immobilised ligand: 86%
Epidermal growth factor receptor (EGFR, Homo sapiens, UniProt P00533, L858R); kinase binding, KINOMEscan; baseline: DMSO control: 100%
Tyrosine-protein kinase FRK (FRK, Homo sapiens, UniProt P42685); kinase binding, KINOMEscan; baseline: DMSO control: 100%
RAC-beta serine/threonine-protein kinase (AKT2, Homo sapiens, UniProt P31751); kinase binding, KINOMEscan; baseline: DMSO control: 100%
MAP kinase-activated protein kinase 2 (MAPKAPK2, Homo sapiens, UniProt P49137); kinase binding, KINOMEscan; baseline: DMSO control: 100%
Proto-oncogene tyrosine-protein kinase receptor Ret (RET, Homo sapiens, UniProt P07949, M918T); binding, competition with immobilised ligand: 100%
Serine/threonine-protein kinase Sgk3 (SGK3, Homo sapiens, UniProt Q96BR1); binding, competition with immobilised ligand: 100%
Tyrosine-protein kinase ABL1, phosphorylated (ABL1, Homo sapiens, UniProt P00519, Y253F); kinase binding, KINOMEscan; baseline: DMSO control: 75%
Casein kinase I isoform delta (CSNK1D, Homo sapiens, UniProt P48730); kinase binding, KINOMEscan; baseline: DMSO control: 100%
Activin receptor type-1 (ACVR1, Homo sapiens, UniProt Q04771); binding, competition with immobilised ligand: 99%
RAC-alpha serine/threonine-protein kinase (AKT1, Homo sapiens, UniProt P31749); kinase binding, KINOMEscan; baseline: DMSO control: 100%
STE20-like serine/threonine-protein kinase (SLK, Homo sapiens, UniProt Q9H2G2); kinase binding, KINOMEscan; baseline: DMSO control: 100%

Study 3 — observed: binding; action: competitor; method: NanoBRET; cells: HEK293; endpoint: normalized BRET
Structure (SMILES): CN1CCC[C@H]1COc1nc2c(c(N3CCN(C(=O)C4CC4)[C@@H](CC#N)C3)n1)CCN(c1cccc3cccc(Cl)c13)C2
KRAS G13D: GTPase KRas (KRAS, Homo sapiens, UniProt P01116, G13D)
KRAS Q61L: GTPase KRas (KRAS, Homo sapiens, UniProt P01116, Q61L)
KRAS Q61H: GTPase KRas (KRAS, Homo sapiens, UniProt P01116, Q61H)
GTPase KRas (KRAS, Homo sapiens, UniProt P01116, Q61R); 15.2 nM: 102% and 89.1% and 97.5%
KRAS G13D; 412 nM: 80.8% and 80% and 89.7%
GTPase KRas (KRAS, Homo sapiens, UniProt P01116, G12D); 3.7 µM: 82.3% and 99.1% and 90.5%
KRAS G13D; 137 nM: 96.5% and 90.9% and 94.7%
KRAS Q61L; 1.24 µM: 74.1% and 66.5% and 74.3%
KRAS Q61H; 412 nM: 92.7% and 84.1% and 86.2%
KRAS Q61L; 33.3 µM: 26.6% and 20.1% and 27.9%
KRAS Q61H; 45.7 nM: 95.2% and 96% and 106%
KRAS G13D; 5.08 nM: 93.2% and 102% and 88.8%

Study 4 — endpoint: remaining binding
Structure (SMILES): COc1cc(-c2nc3ccc(C(=O)NCCCN(C)C)cc3n2C2CCC2)cc(OC)c1OC
Tyrosine-protein kinase ABL1, phosphorylated (ABL1, Homo sapiens, UniProt P00519, Q252H); binding, competition with immobilised ligand; 1 µM: 55%
Receptor-interacting serine/threonine-protein kinase 2 (RIPK2, Homo sapiens, UniProt O43353); binding, competition with immobilised ligand; 1 µM: 77%
Angiopoietin-1 receptor (TEK, Homo sapiens, UniProt Q02763); binding, competition with immobilised ligand; 1 µM: 89%
Mitogen-activated protein kinase kinase kinase 14 (MAP3K14, Homo sapiens, UniProt Q99558); binding, competition with immobilised ligand; 1 µM: 85%
Serine/threonine-protein kinase NLK (NLK, Homo sapiens, UniProt Q9UBE8); binding, competition with immobilised ligand; 1 µM: 94%
Muscle, skeletal receptor tyrosine-protein kinase (MUSK, Homo sapiens, UniProt O15146); binding, competition with immobilised ligand; 1 µM: 88%
Myosin light chain kinase (MYLK3, Homo sapiens, UniProt Q32MK0); binding, competition with immobilised ligand; 1 µM: 84%
Receptor-type tyrosine-protein kinase FLT3 (FLT3, Homo sapiens, UniProt P36888); binding, competition with immobilised ligand; 1 µM: 87%
Epidermal growth factor receptor (EGFR, Homo sapiens, UniProt P00533, L858R); binding, competition with immobilised ligand; 1 µM: 69%
Wee1-like protein kinase (WEE1, Homo sapiens, UniProt P30291); binding, competition with immobilised ligand; 1 µM: 100%
Serine/threonine-protein kinase 17B (STK17B, Homo sapiens, UniProt O94768); binding, competition with immobilised ligand; 1 µM: 92%
Serine/threonine-protein kinase MARK2 (MARK2, Homo sapiens, UniProt Q7KZI7); binding, competition with immobilised ligand; 1 µM: 95%
Tyrosine-protein kinase ABL1, non-phosphorylated (ABL1, Homo sapiens, UniProt P00519, T315I); binding, competition with immobilised ligand; 1 µM: 100%
Dual specificity mitogen-activated protein kinase kinase 6 (MAP2K6, Homo sapiens, UniProt P52564); binding, competition with immobilised ligand; 1 µM: 100%
Mitogen-activated protein kinase 3 (MAPK3, Homo sapiens, UniProt P27361); binding, competition with immobilised ligand; 1 µM: 97%
Mitogen-activated protein kinase kinase kinase 10 (MAP3K10, Homo sapiens, UniProt Q02779); binding, competition with immobilised ligand; 1 µM: 62%
FLT3 ITD human; KINOMEscan; 1000 nM; baseline: DMSO control: 100%
cGMP-dependent protein kinase 2 (PRKG2, Homo sapiens, UniProt Q13237); binding, competition with immobilised ligand; 1 µM: 86%
Myotonin-protein kinase (DMPK, Homo sapiens, UniProt Q09013); binding, competition with immobilised ligand; 1 µM: 94%
Serine/threonine-protein kinase PRP4 homolog (PRPF4B, Homo sapiens, UniProt Q13523); binding, competition with immobilised ligand; 1 µM: 99%
G protein-coupled receptor kinase 3 (GRK3, Homo sapiens, UniProt P35626); binding, competition with immobilised ligand; 1 µM: 97%
Serine/threonine-protein kinase Nek7 (NEK7, Homo sapiens, UniProt Q8TDX7); binding, competition with immobilised ligand; 1 µM: 78%
Cyclin-dependent kinase 2 (CDK2, Homo sapiens, UniProt P24941); binding, competition with immobilised ligand; 1 µM: 90%
Serine/threonine-protein kinase ULK2 (ULK2, Homo sapiens, UniProt Q8IYT8); binding, competition with immobilised ligand; 1 µM: 100%
Serine/threonine-protein kinase PLK2 (PLK2, Homo sapiens, UniProt Q9NYY3); binding, competition with immobilised ligand; 1 µM: 86%

For quick reference, copied from above (study 1):
DCAF1; 76.61 °C: 47600 a.u.
DCAF1; 87.21 °C: 37700 a.u.
DCAF1; 26.2 °C: 7610 a.u.
WDR5; 88.21 °C: 43600 a.u.
WDR5; 27.8 °C: 14900 a.u.
DCAF1; 92.61 °C: 32500 a.u.
DCAF1; 39.2 °C: 9990 a.u.
WDR5; 69.81 °C: 6780 a.u.
